Experimental data of several laboratories.
Each numbered part is a random draw from the data of one study; scales do not carry over between parts. Values joined by “and” are separate records of one study, mostly repeats; a detail may differ.
Chain of UniProt P45985 (whole entry, looked up): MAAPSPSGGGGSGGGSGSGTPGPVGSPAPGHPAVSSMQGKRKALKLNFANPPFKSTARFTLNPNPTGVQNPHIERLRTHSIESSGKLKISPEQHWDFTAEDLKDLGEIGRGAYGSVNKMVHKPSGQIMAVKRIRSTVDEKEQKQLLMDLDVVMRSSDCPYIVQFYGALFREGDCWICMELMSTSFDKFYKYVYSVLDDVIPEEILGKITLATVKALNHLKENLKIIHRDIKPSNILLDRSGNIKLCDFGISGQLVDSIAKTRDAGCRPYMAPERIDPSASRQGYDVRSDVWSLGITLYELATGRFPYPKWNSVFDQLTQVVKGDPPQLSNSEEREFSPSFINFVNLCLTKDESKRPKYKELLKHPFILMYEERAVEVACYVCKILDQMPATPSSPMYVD
Chain of UniProt O14733 (whole entry, looked up): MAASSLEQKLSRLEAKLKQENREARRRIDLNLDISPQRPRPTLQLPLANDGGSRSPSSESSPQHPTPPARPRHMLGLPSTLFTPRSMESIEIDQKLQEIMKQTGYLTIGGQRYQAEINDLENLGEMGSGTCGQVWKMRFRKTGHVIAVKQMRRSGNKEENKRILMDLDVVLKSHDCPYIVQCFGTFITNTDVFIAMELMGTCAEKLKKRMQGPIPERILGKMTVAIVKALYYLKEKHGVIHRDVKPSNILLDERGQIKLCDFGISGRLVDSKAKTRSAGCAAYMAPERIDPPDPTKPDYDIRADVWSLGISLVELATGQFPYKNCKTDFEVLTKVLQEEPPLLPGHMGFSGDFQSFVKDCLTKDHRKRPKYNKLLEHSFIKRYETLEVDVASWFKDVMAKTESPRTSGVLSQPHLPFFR
Chain of UniProt P37023 (whole entry, looked up): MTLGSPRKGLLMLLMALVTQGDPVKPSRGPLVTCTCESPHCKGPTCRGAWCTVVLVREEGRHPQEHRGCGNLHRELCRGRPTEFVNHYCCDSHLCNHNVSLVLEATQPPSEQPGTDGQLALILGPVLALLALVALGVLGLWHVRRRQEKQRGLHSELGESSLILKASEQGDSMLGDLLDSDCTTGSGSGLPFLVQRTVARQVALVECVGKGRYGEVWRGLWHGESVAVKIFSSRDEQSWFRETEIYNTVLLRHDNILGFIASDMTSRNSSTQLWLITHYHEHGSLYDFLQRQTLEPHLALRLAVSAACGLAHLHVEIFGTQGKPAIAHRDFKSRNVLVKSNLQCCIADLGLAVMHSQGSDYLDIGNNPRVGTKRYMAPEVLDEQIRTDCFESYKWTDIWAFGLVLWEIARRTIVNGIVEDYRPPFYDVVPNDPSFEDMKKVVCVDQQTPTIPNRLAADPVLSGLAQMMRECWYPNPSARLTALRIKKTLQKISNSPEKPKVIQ
Chain of UniProt P21709 (whole entry, looked up): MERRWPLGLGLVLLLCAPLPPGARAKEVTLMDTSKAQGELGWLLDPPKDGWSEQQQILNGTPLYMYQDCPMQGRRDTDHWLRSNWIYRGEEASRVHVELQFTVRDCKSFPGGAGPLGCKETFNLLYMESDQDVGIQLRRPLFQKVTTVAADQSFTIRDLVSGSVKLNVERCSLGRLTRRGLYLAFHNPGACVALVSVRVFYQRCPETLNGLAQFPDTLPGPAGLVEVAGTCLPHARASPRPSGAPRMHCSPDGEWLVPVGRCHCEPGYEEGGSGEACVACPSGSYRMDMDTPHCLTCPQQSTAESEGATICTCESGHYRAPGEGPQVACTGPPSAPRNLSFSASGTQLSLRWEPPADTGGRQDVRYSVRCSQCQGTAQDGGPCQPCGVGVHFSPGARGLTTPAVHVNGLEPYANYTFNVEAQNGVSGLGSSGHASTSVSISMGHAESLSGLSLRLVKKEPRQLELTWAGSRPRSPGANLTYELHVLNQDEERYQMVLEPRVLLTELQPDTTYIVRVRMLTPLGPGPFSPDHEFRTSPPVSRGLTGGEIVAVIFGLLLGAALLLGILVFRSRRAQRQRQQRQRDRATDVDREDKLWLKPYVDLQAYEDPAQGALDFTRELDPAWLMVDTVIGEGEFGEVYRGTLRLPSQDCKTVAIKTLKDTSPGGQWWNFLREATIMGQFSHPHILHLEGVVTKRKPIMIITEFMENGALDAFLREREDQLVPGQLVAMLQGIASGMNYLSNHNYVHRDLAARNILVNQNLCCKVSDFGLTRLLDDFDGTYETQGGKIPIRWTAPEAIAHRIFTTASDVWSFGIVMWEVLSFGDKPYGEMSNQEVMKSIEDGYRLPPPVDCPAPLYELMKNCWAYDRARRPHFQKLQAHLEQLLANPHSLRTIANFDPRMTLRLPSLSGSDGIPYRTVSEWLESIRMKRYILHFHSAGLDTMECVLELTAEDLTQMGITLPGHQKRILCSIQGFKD
Chain of UniProt Q9Y243 (whole entry, looked up): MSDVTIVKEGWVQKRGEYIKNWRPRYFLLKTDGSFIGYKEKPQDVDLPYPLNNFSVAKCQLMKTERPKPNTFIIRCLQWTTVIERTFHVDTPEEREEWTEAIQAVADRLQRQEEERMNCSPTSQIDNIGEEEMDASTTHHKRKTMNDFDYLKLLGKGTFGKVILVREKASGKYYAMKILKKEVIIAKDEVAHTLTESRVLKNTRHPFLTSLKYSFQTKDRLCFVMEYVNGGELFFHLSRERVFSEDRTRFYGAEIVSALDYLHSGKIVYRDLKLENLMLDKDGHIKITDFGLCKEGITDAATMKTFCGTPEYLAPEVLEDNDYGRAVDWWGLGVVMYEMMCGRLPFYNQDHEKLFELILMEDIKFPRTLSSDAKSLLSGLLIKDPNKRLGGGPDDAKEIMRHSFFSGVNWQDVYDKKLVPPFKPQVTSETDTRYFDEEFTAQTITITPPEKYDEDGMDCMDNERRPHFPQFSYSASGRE
Chain of UniProt Q8IWQ3 (whole entry, looked up): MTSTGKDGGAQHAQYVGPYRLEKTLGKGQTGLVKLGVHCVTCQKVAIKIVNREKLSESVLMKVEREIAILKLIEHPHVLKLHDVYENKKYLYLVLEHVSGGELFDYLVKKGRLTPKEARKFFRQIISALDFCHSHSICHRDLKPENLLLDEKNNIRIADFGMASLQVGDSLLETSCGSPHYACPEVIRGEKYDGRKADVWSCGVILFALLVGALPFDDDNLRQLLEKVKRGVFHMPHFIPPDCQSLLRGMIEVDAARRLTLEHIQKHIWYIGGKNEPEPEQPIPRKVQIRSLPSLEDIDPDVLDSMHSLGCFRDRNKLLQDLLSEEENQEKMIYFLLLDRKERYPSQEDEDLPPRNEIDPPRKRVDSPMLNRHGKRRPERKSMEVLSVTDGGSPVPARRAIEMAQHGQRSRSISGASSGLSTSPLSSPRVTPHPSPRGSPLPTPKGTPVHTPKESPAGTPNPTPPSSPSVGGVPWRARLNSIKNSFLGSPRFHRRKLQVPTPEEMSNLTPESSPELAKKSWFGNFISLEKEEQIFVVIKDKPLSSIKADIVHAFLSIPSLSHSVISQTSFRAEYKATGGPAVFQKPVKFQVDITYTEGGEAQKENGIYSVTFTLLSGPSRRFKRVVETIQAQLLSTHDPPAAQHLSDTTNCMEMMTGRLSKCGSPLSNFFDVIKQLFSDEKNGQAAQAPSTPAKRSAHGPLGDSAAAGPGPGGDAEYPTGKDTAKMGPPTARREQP
Chain of UniProt Q8N568 (whole entry, looked up): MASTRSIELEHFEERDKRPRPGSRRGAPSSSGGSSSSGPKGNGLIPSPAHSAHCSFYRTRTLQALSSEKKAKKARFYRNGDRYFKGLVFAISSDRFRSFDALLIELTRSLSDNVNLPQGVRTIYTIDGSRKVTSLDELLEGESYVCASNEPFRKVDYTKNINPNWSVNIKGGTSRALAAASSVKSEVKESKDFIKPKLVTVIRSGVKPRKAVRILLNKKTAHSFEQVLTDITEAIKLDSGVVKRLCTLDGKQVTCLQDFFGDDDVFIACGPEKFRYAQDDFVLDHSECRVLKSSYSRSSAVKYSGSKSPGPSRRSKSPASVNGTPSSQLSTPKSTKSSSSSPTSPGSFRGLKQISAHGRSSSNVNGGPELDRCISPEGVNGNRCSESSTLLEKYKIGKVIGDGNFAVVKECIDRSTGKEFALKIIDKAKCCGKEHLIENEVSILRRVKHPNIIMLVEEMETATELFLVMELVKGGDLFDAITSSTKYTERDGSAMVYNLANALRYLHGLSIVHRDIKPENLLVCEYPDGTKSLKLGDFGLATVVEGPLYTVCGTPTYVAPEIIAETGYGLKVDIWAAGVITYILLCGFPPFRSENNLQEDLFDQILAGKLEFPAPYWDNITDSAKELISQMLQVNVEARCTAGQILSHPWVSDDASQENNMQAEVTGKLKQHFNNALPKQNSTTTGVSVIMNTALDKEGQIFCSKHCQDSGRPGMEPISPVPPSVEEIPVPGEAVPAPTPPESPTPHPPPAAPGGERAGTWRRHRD
Chain of UniProt P15056 (whole entry, looked up): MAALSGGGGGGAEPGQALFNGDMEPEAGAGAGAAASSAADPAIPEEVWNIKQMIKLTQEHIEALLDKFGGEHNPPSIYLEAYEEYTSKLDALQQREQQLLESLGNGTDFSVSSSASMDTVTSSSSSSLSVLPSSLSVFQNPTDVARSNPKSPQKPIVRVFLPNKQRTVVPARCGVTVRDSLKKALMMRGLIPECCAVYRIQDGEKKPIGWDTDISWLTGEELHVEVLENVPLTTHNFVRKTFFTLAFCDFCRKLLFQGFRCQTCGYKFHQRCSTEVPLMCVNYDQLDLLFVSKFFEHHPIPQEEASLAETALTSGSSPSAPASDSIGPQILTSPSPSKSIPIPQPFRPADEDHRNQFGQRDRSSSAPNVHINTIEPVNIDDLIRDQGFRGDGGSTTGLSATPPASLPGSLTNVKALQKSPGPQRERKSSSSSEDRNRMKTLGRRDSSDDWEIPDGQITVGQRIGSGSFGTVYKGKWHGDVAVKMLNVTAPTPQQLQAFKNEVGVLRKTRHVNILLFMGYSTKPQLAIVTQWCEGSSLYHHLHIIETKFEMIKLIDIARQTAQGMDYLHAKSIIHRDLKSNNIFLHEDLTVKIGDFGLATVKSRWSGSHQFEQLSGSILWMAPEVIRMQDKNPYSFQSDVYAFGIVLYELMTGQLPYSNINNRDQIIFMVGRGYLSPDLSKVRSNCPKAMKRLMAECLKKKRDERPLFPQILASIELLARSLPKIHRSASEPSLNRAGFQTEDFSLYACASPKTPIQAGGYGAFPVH

Block 1
Target: Mitogen-activated protein kinase kinase kinase 7 (MAP3K7, Homo sapiens, UniProt O43318)
Effect on: enzyme activity
Action: inhibitor
Concentration: 0.5 µM
Relative to: control
Endpoint: remaining activity
Construct (O43318 1-606): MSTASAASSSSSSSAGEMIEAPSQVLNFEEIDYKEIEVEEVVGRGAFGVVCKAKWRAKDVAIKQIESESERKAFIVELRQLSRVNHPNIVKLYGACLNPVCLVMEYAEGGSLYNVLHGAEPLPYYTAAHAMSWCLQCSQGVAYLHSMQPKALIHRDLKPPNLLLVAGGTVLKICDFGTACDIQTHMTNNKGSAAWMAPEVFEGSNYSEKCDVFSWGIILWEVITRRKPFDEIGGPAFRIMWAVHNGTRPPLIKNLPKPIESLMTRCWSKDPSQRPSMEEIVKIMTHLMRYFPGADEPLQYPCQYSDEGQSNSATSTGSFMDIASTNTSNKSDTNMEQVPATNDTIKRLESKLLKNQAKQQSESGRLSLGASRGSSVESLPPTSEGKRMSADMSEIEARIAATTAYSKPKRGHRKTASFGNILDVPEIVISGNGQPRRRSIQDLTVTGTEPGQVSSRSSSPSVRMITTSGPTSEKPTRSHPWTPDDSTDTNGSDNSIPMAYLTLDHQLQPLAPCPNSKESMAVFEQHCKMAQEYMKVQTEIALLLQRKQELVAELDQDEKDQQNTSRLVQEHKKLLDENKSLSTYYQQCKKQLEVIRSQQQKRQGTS
SMILES = O=C(c1cc2cc(O)ccc2[nH]1)c1cc2cc(O)ccc2[nH]1; result = 79.5%
SMILES = N#Cc1cnc2cnc(NCc3cccnc3)cc2c1Nc1ccc(F)c(Cl)c1; result = 89.5%
SMILES = O=C1NC(=O)c2c1c1c3ccccc3[nH]c1c1[nH]c3cc(Br)ccc3c21; result = 91.4%
SMILES = Oc1cccc(-c2nc(N3CCOCC3)c3oc4ncccc4c3n2)c1; result = 97.4%
SMILES = O=C1Cc2c([nH]c3ccc(Br)cc23)-c2ccccc2N1; result = 84.2%
SMILES = COc1ccc2c(c1)c(C1=C(c3c[nH]c4ccccc34)C(=O)NC1=O)cn2CCCN(C)C; result = 102%
SMILES = Cc1ccc(S(=O)(=O)/C=C/C#N)cc1; result = 99.9%
SMILES = O=c1cc(N2CCOCC2)oc2c(-c3ccccc3)cccc12; result = 85.4%
SMILES = O=C1Nc2ccc(Br)cc2/C1=C/c1cc2c([nH]1)CCCC2; result = 60.9%
SMILES = O=C1Nc2ccccc2/C1=C\c1c(Cl)[nH]c2ccccc12; result = 99.2%
SMILES = c1ccc2c(-c3ccncc3)c[nH]c2c1; result = 95.5%
SMILES = CN1CCN(c2ccc3nc(-c4c(N)c5c(F)cccc5[nH]c4=O)[nH]c3c2)CC1; result = 19.3%
SMILES = COc1ccc(COc2ccc(Cc3cnc(N)nc3N)cc2OC)cc1; result = 97.9%
SMILES = O=C1NC(=O)c2c1c1c3ccccc3[nH]c1n1cncc21; result = 63.4%
SMILES = CN(C)S(=O)(=O)c1ccc2c(c1)/C(=C/c1cc3c([nH]1)CCCC3)C(=O)N2; result = 89%
SMILES = CCCCc1c(-c2ccc(OC)cc2)[nH]c2nccnc12; result = 90.6%
SMILES = O=Nc1c(-c2c(O)[nH]c3cc(Br)ccc23)[nH]c2ccccc12; result = 79.3%
SMILES = COc1cccc(-c2cc(=O)c3ccccc3o2)c1N; result = 98.7%
SMILES = CCCNC(=O)Nc1ccc(Oc2ncnc3cc(OC)c(OC)cc23)cc1Cl; result = 103%
SMILES = c1ccc(-c2n[nH]c3c2oc2ccccc23)cc1; result = 104%

Block 2
Compound: CNC(=O)c1ccc(Nc2ncc(C(F)(F)F)c(NCc3nccnc3N(C)S(C)(=O)=O)n2)cc1
Method: competition with immobilised ligand
Concentration: 0.1 µM
Endpoint: remaining binding
target = Activin receptor type-1-like (ACVRL1, Homo sapiens, UniProt P37023); assay = cell-free assay; result = 100%
target = Dual specificity mitogen-activated protein kinase kinase 5 (MAP2K5, Homo sapiens, UniProt Q13163); assay = cell-free assay; result = 89%
target = Phosphatidylinositol 5-phosphate 4-kinase type-2 beta (PIP4K2B, Homo sapiens, UniProt P78356); assay = cell-free assay; result = 91%
target = Tyrosine-protein kinase ABL1, non-phosphorylated (ABL1, Homo sapiens, UniProt P00519, F317I); assay = binding; result = 100%
target = Homeodomain-interacting protein kinase 2 (HIPK2, Homo sapiens, UniProt Q9H2X6); assay = cell-free assay; result = 37%
target = Dual specificity mitogen-activated protein kinase kinase 4 (MAP2K4, Homo sapiens, UniProt P45985); assay = cell-free assay; result = 71%
target = Serine/threonine-protein kinase B-raf (BRAF, Homo sapiens, UniProt P15056); assay = cell-free assay; result = 100%
target = Cyclin-dependent kinase 17 (CDK17, Homo sapiens, UniProt Q00537); assay = cell-free assay; result = 88%
target = Serine/threonine-protein kinase 3 (STK3, Homo sapiens, UniProt Q13188); assay = cell-free assay; result = 68%
target = Serine/threonine-protein kinase NIM1 (NIM1K, Homo sapiens, UniProt Q8IY84); assay = cell-free assay; result = 100%
target = Epidermal growth factor receptor (EGFR, Homo sapiens, UniProt P00533, del747-752/P753S); assay = cell-free assay; result = 82%
target = Phosphatidylinositol 3-kinase catalytic subunit type 3 (PIK3C3, Homo sapiens, UniProt Q8NEB9); assay = cell-free assay; result = 100%
target = Serine/threonine-protein kinase LATS2 (LATS2, Homo sapiens, UniProt Q9NRM7); assay = cell-free assay; result = 65%
target = Mitogen-activated protein kinase kinase kinase 7 (MAP3K7, Homo sapiens, UniProt O43318); assay = cell-free assay; result = 57%
target = Dual specificity tyrosine-phosphorylation-regulated kinase 2 (DYRK2, Homo sapiens, UniProt Q92630); assay = cell-free assay; result = 76%
target = TGF-beta receptor type-2 (TGFBR2, Homo sapiens, UniProt P37173); assay = cell-free assay; result = 100%
target = Tyrosine-protein kinase ABL1, phosphorylated (ABL1, Homo sapiens, UniProt P00519, M351T); assay = cell-free assay; result = 100%
target = Phosphatidylinositol 4,5-bisphosphate 3-kinase catalytic subunit alpha isoform (PIK3CA, Homo sapiens, UniProt P42336, H1047L); assay = cell-free assay; result = 32%
target = Serine/threonine-protein kinase DCLK2 (DCLK2, Homo sapiens, UniProt Q8N568); assay = cell-free assay; result = 71%
target = Mitogen-activated protein kinase 7 (MAPK7, Homo sapiens, UniProt Q13164); assay = cell-free assay; result = 87%
target = Serine/threonine-protein kinase BRSK2 (BRSK2, Homo sapiens, UniProt Q8IWQ3); assay = cell-free assay; result = 100%
target = Casein kinase II subunit alpha' (CSNK2A2, Homo sapiens, UniProt P19784); assay = cell-free assay; result = 28%
target = Ephrin type-A receptor 1 (EPHA1, Homo sapiens, UniProt P21709); assay = cell-free assay; result = 98%
target = ALK tyrosine kinase receptor (ALK, Homo sapiens, UniProt Q9UM73); assay = cell-free assay; result = 58%
target = Tyrosine-protein kinase ZAP-70 (ZAP70, Homo sapiens, UniProt P43403); assay = cell-free assay; result = 100%

Block 3
Structure (SMILES): O=C(Nc1cnn(-c2csc(C(=O)NC3COC3)c2)c1)Nc1ccccc1Cl
Effect on: enzyme activity
Concentration: 5 µM
Relative to: untreated control
Endpoint: remaining activity
target = Serine/threonine-protein kinase Sgk1 (SGK1, Homo sapiens, UniProt O00141); result = 93%
target = Dual specificity mitogen-activated protein kinase kinase 7 (MAP2K7, Homo sapiens, UniProt O14733); result = 109%
target = RAC-gamma serine/threonine-protein kinase (AKT3, Homo sapiens, UniProt Q9Y243); result = 84.5%
target = Dual specificity mitogen-activated protein kinase kinase 4 (MAP2K4, Homo sapiens, UniProt P45985); result = 111%
target = Serine/threonine-protein kinase TAO2 (TAOK2, Homo sapiens, UniProt Q9UL54); result = 101%
target = Hepatocyte growth factor receptor (MET, Homo sapiens, UniProt P08581); result = 100%
target = Leucine-rich repeat serine/threonine-protein kinase 2 (LRRK2, Homo sapiens, UniProt Q5S007); result = 87.9%
target = Ribosomal protein S6 kinase alpha-3 (RPS6KA3, Homo sapiens, UniProt P51812); result = 95.1%
target = cGMP-dependent protein kinase 1, isoform beta (PRKG1, Homo sapiens, UniProt Q13976); result = 86.2%
target = Protein-tyrosine kinase 6 (PTK6, Homo sapiens, UniProt Q13882); result = 101%
target = Dual serine/threonine and tyrosine protein kinase (DSTYK, Homo sapiens, UniProt Q6XUX3); result = 101%
target = Maternal embryonic leucine zipper kinase (MELK, Homo sapiens, UniProt Q14680); result = 48.2%

Block 4
Cell line: mouse MPNST tumor cells
Method: high-content nuclear imaging
Measured: cell number
Concentration: 10 µM
Time: 12 h
Notes: mean of 2 replicates
Relative to: plate mean
Reading: higher = more cells
Endpoint: nuclei count
Structure (SMILES) = CN1C2CCCC1CC(NC(=O)c1nn(C)c3ccccc13)C2 (stereo not drawn); result = -0.355 z-score
Structure (SMILES) = CC(=O)NCCc1c(Cc2ccccc2)[nH]c2ccccc12; result = 0.82 z-score
Structure (SMILES) = Cc1ccc(-c2n[nH]c3c2C(c2cccc(O)c2)N(c2ccc(C(=O)O)cc2)C3=O)cc1 (stereo not drawn); result = -0.193 z-score
Structure (SMILES) = O=C(O)c1c[nH]c2cc(Cl)c(-c3ccc(C4(O)CCC4)cc3)cc12; result = -1.05 z-score
Structure (SMILES) = C=C(NC(=O)C(=C)NC(=O)c1csc(C2=N[C@@H]3c4csc(n4)[C@H]4NC(=O)c5csc(n5)[C@H]([C@](C)(O)[C@@H](C)O)NC(=O)[C@H]5CSC(=N5)/C(=C/C)NC(=O)[C@H]([C@@H](C)O)NC(=O)c5csc(n5)[C@]3(CC2)NC(=O)[C@H](C)NC(=O)C(=C)NC(=O)[C@H](C)NC(=O)[C@H]([C@@H](C)CC)N[C@@H]2C=Cc3c([C@H](C)O)cc(nc3[C@H]2O)C(=O)O[C@@H]4C)n1)C(N)=O; result = -3.77 z-score
Structure (SMILES) = NS(=O)(=O)c1cc(C(=O)O)c(NCc2ccco2)cc1Cl; result = 0.81 z-score and 1.04 z-score
Structure (SMILES) = COC(=O)C1=C(C)NC(C)=C(C(=O)OC(C)C)C1c1cccc2nonc12 (stereo not drawn); result = 0.776 z-score and 5.17 z-score
Structure (SMILES) = CC(C)c1cc(-c2ccc(F)c3ccccc23)nc(N)n1; result = 2.74 z-score
Structure (SMILES) = Nc1ncnc2c1c(-c1cccc(OCc3ccccc3)c1)cn2C1CC(CN2CCCC2)C1 (stereo not drawn); result = 0.762 z-score

Excerpt of the above (block 4):
Structure (SMILES) = Cc1ccc(-c2n[nH]c3c2C(c2cccc(O)c2)N(c2ccc(C(=O)O)cc2)C3=O)cc1 (stereo not drawn); result = -0.193 z-score
Structure (SMILES) = COC(=O)C1=C(C)NC(C)=C(C(=O)OC(C)C)C1c1cccc2nonc12 (stereo not drawn); result = 0.776 z-score and 5.17 z-score
Structure (SMILES) = CC(=O)NCCc1c(Cc2ccccc2)[nH]c2ccccc12; result = 0.82 z-score
Structure (SMILES) = NS(=O)(=O)c1cc(C(=O)O)c(NCc2ccco2)cc1Cl; result = 0.81 z-score and 1.04 z-score
Structure (SMILES) = O=C(O)c1c[nH]c2cc(Cl)c(-c3ccc(C4(O)CCC4)cc3)cc12; result = -1.05 z-score
Structure (SMILES) = CC(C)c1cc(-c2ccc(F)c3ccccc23)nc(N)n1; result = 2.74 z-score
